Assay results pooled from the literature.
Protocols differ between the studies behind these lines. Several values in a cell are separate wells, animals, samples, runs or records. ± marks the error that the study gave.
Sequence of UniProt P53355 (whole entry, looked up): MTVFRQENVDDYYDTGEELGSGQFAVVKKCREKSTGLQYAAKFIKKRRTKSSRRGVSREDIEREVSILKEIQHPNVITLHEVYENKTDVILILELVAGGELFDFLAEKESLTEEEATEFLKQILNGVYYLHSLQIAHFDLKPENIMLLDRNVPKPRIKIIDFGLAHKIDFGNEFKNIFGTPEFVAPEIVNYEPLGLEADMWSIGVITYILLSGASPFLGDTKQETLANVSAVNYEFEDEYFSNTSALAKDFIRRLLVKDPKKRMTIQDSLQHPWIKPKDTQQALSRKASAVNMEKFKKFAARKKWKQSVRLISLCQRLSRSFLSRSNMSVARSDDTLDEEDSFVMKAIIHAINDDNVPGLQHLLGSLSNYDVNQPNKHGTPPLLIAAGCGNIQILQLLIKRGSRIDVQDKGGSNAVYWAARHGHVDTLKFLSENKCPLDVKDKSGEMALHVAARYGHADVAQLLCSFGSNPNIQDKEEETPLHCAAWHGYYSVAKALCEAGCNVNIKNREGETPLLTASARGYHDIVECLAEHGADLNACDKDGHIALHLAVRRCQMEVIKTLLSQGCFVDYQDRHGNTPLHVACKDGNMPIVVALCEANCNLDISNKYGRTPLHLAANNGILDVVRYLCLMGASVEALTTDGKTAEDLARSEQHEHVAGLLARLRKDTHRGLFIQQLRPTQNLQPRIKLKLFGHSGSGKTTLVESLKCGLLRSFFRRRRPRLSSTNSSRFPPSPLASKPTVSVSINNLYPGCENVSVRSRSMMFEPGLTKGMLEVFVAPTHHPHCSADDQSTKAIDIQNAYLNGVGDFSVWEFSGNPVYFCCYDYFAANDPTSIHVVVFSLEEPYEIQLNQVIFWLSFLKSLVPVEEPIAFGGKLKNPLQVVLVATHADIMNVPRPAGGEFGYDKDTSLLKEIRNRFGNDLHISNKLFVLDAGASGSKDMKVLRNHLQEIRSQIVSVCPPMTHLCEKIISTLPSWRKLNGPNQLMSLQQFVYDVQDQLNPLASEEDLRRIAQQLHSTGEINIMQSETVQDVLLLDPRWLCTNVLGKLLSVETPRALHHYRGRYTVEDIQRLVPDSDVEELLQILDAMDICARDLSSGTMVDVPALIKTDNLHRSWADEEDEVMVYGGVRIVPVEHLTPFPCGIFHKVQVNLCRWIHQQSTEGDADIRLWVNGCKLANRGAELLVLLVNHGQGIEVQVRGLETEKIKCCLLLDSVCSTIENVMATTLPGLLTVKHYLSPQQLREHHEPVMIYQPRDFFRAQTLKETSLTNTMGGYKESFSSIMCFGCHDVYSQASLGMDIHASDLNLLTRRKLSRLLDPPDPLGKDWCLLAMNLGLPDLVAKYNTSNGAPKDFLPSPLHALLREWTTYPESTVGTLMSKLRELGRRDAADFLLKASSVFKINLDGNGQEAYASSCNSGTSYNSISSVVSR
Sequence of UniProt P11309 (whole entry, looked up): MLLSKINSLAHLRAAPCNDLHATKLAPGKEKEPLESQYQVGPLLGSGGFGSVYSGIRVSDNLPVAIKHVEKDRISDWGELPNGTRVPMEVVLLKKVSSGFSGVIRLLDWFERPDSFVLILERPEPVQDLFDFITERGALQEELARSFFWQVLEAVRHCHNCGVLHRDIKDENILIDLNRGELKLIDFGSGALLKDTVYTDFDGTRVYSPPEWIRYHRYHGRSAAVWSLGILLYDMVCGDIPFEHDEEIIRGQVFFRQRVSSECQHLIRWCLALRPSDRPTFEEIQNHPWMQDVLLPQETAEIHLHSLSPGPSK

CC[C@H](C)[C@H](NC(=O)[C@@H](NC(=O)[C@H](CCCCN)NC(=O)[C@H](CCC(N)=O)NC(=O)[C@@H](NC(=O)[C@H](Cc1c[nH]c2ccccc12)NC(=O)[C@H](CCCCN)NC(=O)[C@H](CCCCN)NC(=O)[C@H](CC(C)C)NC(=O)[C@H](CCCNC(=N)N)NC(=O)[C@H](Cc1ccccc1)NC(=O)[C@@H](N)C(C)C)[C@@H](C)CC)C(C)C)C(N)=O
viability (RAW264.7; WST-8; 32 µM, 24 h; reference: control): < 50%

CC[C@H](C)[C@H](NC(=O)[C@H](CO)NC(=O)[C@H](Cc1ccc(O)cc1)NC(=O)[C@H](Cc1ccc(O)cc1)NC(=O)[C@H](CC(N)=O)NC(=O)CNC(=O)[C@H](CO)NC(=O)[C@H](Cc1ccc(O)cc1)NC(=O)[C@H](CO)NC(=O)[C@H](CO)NC(=O)[C@H](CC(N)=O)NC(=O)COCCOCCNC(=O)CN1CCN(CC(=O)O)CCN(CC(=O)O)CCN(CC(=O)O)CC1)C(=O)N[C@@H](CC(C)C)C(N)=O [copper-64 labelled]
tissue uptake (dynamic PET; KPC mouse Ptf1a-CreER tdTomato, pancreas; intravenous, dose not given, 3.5 min, 84 d after tamoxifen): 14.1 %ID/mL

CC(C)[C@H](CNC(=O)[C@@H](NC(=O)c1cccc(-c2ccccc2)n1)[C@@H](C)O)B(O)O
viability (HEK-293T-ACE2-TMPRSS2; cell count; 10 µM): 68%

O=C(O)CC[C@H](NC(=O)[C@H](CCC(=O)O)NC(=O)[C@H](CCC(=O)O)NC(=O)[C@H](CCC(=O)O)NC(=O)[C@H](CCC(=O)O)NC(=O)CNC(=O)[C@H](CCC(=O)O)NC(=O)CNC(=O)[C@H](CCC(=O)O)NC(=O)[C@@H](Cc1ccccc1)NC(=O)[C@@H](Cc1ccccc1)NC(=O)Cc1ccc2ccccc2c1)C(=O)O
viability (SAOS-2; MTT; 400 µM, 3 days): ~80%

CC1(C)CC(=O)c2c(C(F)(F)F)nn(-c3ccc(C(N)=O)c(N[C@H]4CC[C@H](OC(=O)CN)CC4)c3)c2C1
viability (HEK-293T-ACE2-TMPRSS2; cell count; 10 µM): 81%

CS(C)(=O)=Nc1ccc(-c2ccc(-c3nc4cc(O[C@@H]5CO[C@H]6[C@@H]5OC[C@H]6O)[nH]c4cc3F)cc2)cc1
inhibition (Serine/threonine-protein kinase pim-1 (PIM1, Homo sapiens, UniProt P11309); enzyme activity, inhibitor; 10 µM): 2%

CCOc1ccc(CN2CC[C@H]2C(=O)NC)cc1-c1cccc(C(=O)NC[C@@H]2COC(C)(C)O2)c1
viability (Huh-7-ACE2; CellTiter-Glo; 0.00305 µM, 48 h, unit not given; reference: DMSO): 1.09 and 0.987

COc1ccccc1-c1n[nH]c2nc(NC3CCN(C(=O)Cc4ccc(F)cc4F)CC3)ncc12
relative abundance (bead binding, competition bead pull-down, measured: LINJ.30.3000; Leishmania donovani axenic amastigote extract; 10 µM; reference: vehicle): 1.03

CNC(=O)C[C@H](Cc1ccc(F)cc1)NC(=O)[C@@H](Cc1ccc(Cl)cc1Cl)NC(=O)[C@H](N)Cc1ccccc1C#N
viability (Huh-7-ACE2; CellTiter-Glo; 0.000191 µM, 48 h, unit not given; reference: DMSO): 1.03 and 0.975 and 0.929

NC(=O)N/N=C/c1ccc(OCc2ccccc2)cc1
viability (IMR-32; MTT; 400 µg/mL, 24 h; reference: untreated control): 17.4%

CC(C)(C)C(=O)OCOP(=O)(OCOC(=O)C(C)(C)C)C1CCCN(O)C1=O (stereo not drawn)
TGI (ACHN): 7.97 µM

Cc1n[nH]c(C)c1CCCOc1cc(OCCCCCCNCCOCCOCCn2cc(CNc3ccc(C(=O)O)cc3)nn2)cc(C(=O)O)c1
viability (Hep3B; cell growth or viability, MTT; 100 µM, 72 h): 100%

C[C@@H]1O[C@@H](O[C@@H]2[C@@H](O)[C@H](O)[C@@H](CO)O[C@H]2c2c(O)cc(O)c3c(=O)cc(-c4ccc(O)cc4)oc23)[C@H](O)[C@H](O)[C@H]1O
viability (Caco-2; CCK-8; 20 µM, 24 h): 110%

CNC(=O)C[C@H](Cc1ccccc1)NC(=O)[C@@H](Cc1ccc(Cl)cc1Cl)NC(=O)[C@H](N)Cc1ccccc1C#N
viability (Huh-7-ACE2; CellTiter-Glo; 0.00153 µM, 48 h, unit not given; reference: DMSO): 1.15 and 0.991 and 1.14

O=C1NC(=O)c2c1c1cc(F)c[n+]3c1c1c2c2cc(O)ccc2[n]1[Ru-4]312([N]=C=S)[S+]3CC[S+]1CC[S+]2CC3 (stereo not drawn)
remaining activity (Death-associated protein kinase 1 (DAPK1, Homo sapiens, UniProt P53355); enzyme activity; 100 nM, human enzyme, together with: 10 µM ATP; reference: untreated): 2%

CC(C)C[C@H](NC(=O)CNC(=O)[C@H](CO)NC(=O)[C@@H](N)CO)C(=O)N[C@@H](Cc1ccccc1)C(=O)N1CCC[C@H]1C(=O)N[C@@H](Cc1ccccc1)C(=O)N[C@@H](CC(C)C)C(=O)N[C@H](C(=O)N[C@@H](CC(C)C)C(=O)N[C@@H](CC(C)C)C(=O)N[C@@H](C)C(=O)N[C@@H](CC(C)C)C(=O)NCC(=O)N[C@H](C(=O)N[C@@H](CC(C)C)C(=O)N[C@@H](C)C(=O)N1CCC[C@H]1C(=O)N[C@@H](Cc1c[nH]c2ccccc12)C(=O)N[C@@H](C)C(=O)N[C@H](C(=O)N[C@@H](CCC(=O)O)C(=O)NCC(=O)N[C@@H](CO)C(=O)NCC(=O)N[C@@H](CCCCN)C(=O)O)C(C)C)[C@@H](C)O)C(C)C
viability (RAW264.7; MTT; 10 µg/mL, 24 h; reference: vehicle): 58 ± 1.73%

O=c1n(CCNCCOS(=O)(=O)c2ccccc2)c(=O)n(S(=O)(=O)c2ccccc2)c(=O)n1S(=O)(=O)c1ccccc1
viability (HUVEC; cell growth or viability, MTT; 50 µg/mL, 72 h): 15.6%

O=C1NC2(CC2)COc2ncc(F)cc2[C@H]2COCCN2c2ccn3ncc1c3n2
organ-to-brain weight ratio (Sprague-Dawley rat, male, heart; oral, 10 mg/kg/day, 4 weeks dosing, end of recovery): 71.7 ± 2.39%

Some of these lines once more:
CC1(C)CC(=O)c2c(C(F)(F)F)nn(-c3ccc(C(N)=O)c(N[C@H]4CC[C@H](OC(=O)CN)CC4)c3)c2C1
viability (HEK-293T-ACE2-TMPRSS2; cell count; 10 µM): 81%

CC(C)[C@H](CNC(=O)[C@@H](NC(=O)c1cccc(-c2ccccc2)n1)[C@@H](C)O)B(O)O
viability (HEK-293T-ACE2-TMPRSS2; cell count; 10 µM): 68%

C[C@@H]1O[C@@H](O[C@@H]2[C@@H](O)[C@H](O)[C@@H](CO)O[C@H]2c2c(O)cc(O)c3c(=O)cc(-c4ccc(O)cc4)oc23)[C@H](O)[C@H](O)[C@H]1O
viability (Caco-2; CCK-8; 20 µM, 24 h): 110%
